Published values pooled from the literature.
Parts stem from different laboratories: compare values within a part only.
UniProt P33981, sequence (whole entry, looked up): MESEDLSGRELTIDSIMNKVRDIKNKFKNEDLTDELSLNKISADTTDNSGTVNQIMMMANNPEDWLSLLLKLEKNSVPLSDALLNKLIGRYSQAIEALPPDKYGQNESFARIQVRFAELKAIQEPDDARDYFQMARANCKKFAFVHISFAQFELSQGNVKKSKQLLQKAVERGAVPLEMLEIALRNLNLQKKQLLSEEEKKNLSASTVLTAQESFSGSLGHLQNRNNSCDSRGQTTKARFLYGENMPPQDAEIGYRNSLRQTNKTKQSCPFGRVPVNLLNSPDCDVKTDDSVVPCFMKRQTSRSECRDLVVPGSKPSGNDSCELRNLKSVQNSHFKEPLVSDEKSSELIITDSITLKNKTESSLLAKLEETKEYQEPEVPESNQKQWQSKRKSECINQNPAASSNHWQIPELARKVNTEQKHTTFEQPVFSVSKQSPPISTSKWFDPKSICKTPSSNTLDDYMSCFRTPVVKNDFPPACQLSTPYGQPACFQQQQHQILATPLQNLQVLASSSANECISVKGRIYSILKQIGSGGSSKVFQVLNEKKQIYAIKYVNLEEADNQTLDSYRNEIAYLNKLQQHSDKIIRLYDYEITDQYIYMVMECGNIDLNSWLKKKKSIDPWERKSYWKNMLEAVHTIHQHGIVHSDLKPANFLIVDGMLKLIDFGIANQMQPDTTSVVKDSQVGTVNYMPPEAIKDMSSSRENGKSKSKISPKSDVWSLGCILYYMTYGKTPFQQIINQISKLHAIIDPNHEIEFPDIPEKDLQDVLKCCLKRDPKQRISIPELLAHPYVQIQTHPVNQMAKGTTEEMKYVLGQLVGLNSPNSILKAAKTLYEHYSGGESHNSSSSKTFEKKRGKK
UniProt P41240, sequence (whole entry, looked up): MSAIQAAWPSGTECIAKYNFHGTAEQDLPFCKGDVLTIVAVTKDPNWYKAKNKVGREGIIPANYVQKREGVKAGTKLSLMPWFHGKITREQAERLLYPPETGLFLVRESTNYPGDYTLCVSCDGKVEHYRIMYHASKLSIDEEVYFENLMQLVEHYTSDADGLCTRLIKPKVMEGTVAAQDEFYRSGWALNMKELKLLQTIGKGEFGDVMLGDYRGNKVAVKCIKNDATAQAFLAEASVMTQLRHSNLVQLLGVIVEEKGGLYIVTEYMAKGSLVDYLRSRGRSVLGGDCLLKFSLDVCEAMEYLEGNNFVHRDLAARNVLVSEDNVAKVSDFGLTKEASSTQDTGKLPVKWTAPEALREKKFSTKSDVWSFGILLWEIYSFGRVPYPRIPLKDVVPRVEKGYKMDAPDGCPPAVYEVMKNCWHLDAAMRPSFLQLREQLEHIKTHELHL
UniProt Q99640, sequence (whole entry, looked up): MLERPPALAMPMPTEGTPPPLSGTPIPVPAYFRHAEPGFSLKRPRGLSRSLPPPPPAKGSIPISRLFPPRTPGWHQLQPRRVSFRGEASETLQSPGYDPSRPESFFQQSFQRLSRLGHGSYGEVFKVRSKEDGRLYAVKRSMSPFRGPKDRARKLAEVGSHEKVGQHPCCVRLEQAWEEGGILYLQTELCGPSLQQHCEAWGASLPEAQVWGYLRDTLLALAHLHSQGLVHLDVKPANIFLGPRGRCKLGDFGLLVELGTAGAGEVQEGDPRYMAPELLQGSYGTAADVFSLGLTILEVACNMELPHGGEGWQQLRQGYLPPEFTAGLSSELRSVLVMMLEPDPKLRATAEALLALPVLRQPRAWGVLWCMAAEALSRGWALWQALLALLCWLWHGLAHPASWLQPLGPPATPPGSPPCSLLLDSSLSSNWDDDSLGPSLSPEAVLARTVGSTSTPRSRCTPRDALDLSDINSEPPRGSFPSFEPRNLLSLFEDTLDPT
UniProt O00238, sequence (whole entry, looked up): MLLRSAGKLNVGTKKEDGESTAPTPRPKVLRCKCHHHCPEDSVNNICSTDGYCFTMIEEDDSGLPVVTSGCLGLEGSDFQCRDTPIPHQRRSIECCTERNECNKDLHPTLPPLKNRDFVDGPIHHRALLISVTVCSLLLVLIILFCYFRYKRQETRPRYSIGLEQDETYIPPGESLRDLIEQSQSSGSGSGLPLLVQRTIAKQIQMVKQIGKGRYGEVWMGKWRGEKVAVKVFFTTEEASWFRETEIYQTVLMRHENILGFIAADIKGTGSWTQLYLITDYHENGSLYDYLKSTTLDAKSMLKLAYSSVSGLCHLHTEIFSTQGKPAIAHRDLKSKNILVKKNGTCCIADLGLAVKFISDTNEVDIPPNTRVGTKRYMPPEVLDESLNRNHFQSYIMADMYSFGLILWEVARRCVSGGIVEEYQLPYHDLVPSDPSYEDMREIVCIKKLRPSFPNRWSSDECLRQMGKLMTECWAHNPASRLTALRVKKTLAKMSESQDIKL
UniProt Q9BVS4, sequence (whole entry, looked up): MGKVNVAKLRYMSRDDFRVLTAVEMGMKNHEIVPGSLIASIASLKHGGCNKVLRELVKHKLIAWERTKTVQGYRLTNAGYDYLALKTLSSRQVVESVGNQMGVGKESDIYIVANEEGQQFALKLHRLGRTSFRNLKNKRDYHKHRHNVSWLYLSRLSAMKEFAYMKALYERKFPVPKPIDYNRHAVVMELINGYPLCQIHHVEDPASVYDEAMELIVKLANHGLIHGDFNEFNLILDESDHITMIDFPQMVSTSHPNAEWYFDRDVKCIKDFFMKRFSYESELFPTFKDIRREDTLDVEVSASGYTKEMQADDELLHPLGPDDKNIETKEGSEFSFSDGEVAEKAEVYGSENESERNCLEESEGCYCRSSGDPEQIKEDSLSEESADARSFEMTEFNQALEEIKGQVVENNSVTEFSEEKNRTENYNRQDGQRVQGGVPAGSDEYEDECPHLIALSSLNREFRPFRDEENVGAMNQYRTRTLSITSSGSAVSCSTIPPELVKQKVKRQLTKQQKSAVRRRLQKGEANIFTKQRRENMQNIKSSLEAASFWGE

Block 1 — method: LC-MS/MS; matrix: plasma; quantity: plasma concentration
SMILES: COc1ccc(-c2c(Nc3ccccn3)[nH]c3c(C4=CCCCC4)c(-c4ccccc4)nn3c2=O)cc1
measured: S-adenosylmethionine; human cancer patients; 50 mg QD, 8 h, mean, cycle 1 day 50: 25.7 ng/mL
measured: methionine; human cancer patients; 200 mg BID, 0 h, mean, cycle 1 day 200: 74400 ng/mL
human; oral, 200 mg twice daily, 1 h, mean: 12600 ng/mL
measured: methionine; human cancer patients; QD, dose not given, 0 h, median, cycle 1 day 50: 80300 ng/mL
measured: S-adenosylmethionine; human cancer patients; 50 mg QD, 6 h, median, cycle 1 day 50: 16.8 ng/mL
measured: S-adenosylmethionine; human cancer patients; 50 mg QD, 8 h, median, cycle 1 day 50: 18.2 ng/mL
measured: methionine; human cancer patients; 200 mg BID, 4 h, mean, cycle 1 day 200: 76000 ng/mL

Block 2 — method: Phase 2a trial; species: idiopathic pulmonary fibrosis patients; quantity: patients with adverse events
SMILES: CC(C)n1cnc(-c2ccc(F)cc2)c1-c1ncc(C(=O)Nc2ccc(N3CCN(C)CC3)cc2)[nH]1
measured: urinary tract infection; dose not given, grade 4 maximum intensity, all arms: 0%
measured: respiratory tract infection; 30 mg once daily, grade 3 maximum intensity: 0%
measured: muscular weakness; 60 mg once daily, grade 3 maximum intensity: 0%
measured: blood bilirubin increased; dose not given, grade 2 maximum intensity, all arms: 0%
measured: bile acids increased; 30 mg once daily, grade 5 maximum intensity: 0%
measured: vision blurred; dose not given, grade 5 maximum intensity, all arms: 0%
measured: urinary tract infection; 60 mg once daily, grade 5 maximum intensity: 0%
measured: blood alkaline phosphatase increased; 30 mg once daily, grade 1 maximum intensity: 0%

Block 3 — effect on: enzyme activity; action: inhibitor; tested at: 0.5 µM; baseline: control; quantity: remaining activity
Target: Inhibitor of nuclear factor kappa-B kinase subunit epsilon (IKBKE, Homo sapiens, UniProt Q14164)
Construct (Q14164 1-716): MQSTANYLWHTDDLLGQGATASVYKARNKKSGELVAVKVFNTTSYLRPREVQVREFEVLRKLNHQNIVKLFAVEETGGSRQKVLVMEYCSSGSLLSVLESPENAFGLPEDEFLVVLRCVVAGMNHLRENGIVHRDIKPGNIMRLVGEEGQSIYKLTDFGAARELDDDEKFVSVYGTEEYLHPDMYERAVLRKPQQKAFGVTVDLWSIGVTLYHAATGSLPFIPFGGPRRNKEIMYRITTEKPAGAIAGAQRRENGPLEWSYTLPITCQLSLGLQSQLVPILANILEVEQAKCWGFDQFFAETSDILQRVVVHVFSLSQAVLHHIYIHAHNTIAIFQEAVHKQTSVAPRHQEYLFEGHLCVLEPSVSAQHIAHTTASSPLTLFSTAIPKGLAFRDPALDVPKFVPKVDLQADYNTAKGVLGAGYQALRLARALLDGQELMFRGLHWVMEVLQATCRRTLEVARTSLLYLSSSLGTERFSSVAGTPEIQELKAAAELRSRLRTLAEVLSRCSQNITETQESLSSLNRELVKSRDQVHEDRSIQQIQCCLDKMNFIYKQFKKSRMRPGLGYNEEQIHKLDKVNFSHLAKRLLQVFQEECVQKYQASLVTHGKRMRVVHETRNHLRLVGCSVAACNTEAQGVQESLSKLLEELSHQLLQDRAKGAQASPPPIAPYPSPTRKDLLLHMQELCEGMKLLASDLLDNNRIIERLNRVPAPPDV
CC(C)[C@H](CO)Nc1nc(Nc2cc(N)cc(Cl)c2)c2ncn(C(C)C)c2n1: 88.4%
C#Cc1cccc(Nc2ncnc3cc(OCCOC)c(OCCOC)cc23)c1: 87.6%
COc1cc2ncnc(Nc3ccc(Oc4ccccc4)cc3)c2cc1OC: 101%
CN(C)c1ccc(C=C2C(=O)Nc3ccccc32)cc1: 98.2%
OCC(O)CCON=C1C(c2c(O)[nH]c3ccccc23)=Nc2ccccc21 (centres unmarked): 45.7%
CNC(=O)c1cc(Oc2ccc(NC(=O)Nc3ccc(Cl)c(C(F)(F)F)c3)cc2)ccn1: 89.8%
COc1ccc(OC)c2c(=S)c3ccccc3[nH]c12: 104%
O=C1NC(=O)C(c2cn(CCCn3ccnc3)c3ccccc23)=C1Nc1ccccc1: 87%
O=C1NC(=O)C(c2cn(CCCO)c3ncccc23)=C1c1cnccn1: 90%
Cc1cccc(-c2[nH]c(C(C)(C)C)nc2-c2ccc3c(c2)OCO3)n1: 91.8%
NCCNc1ncc(C(N)=O)c(Nc2cccc(C(F)(F)F)c2)n1: 95.8%
Cc1nc(-c2ccccc2)c(-c2ccncc2)o1: 102%
COc1ccc(CNC(=O)Nc2ncc([N+](=O)[O-])s2)cc1: 99.8%
COc1cc2ncnc(Nc3ccc(F)c(Cl)c3)c2cc1OCCCN1CCOCC1: 89.8%
Cn1sc(=O)n(Cc2ccccc2)c1=O: 96.4%

Block 4 — effect on: cell-free assay; method: competition with immobilised ligand; tested at: 0.1 µM; quantity: remaining binding
Compound: C[C@@H]1CN(c2cc(-c3n[nH]c4ccc(OC5(C)CC5)cc34)ncn2)C[C@H](C)O1
EGFR (Homo sapiens, UniProt P00533, T790M): 100%
IKBKE (Homo sapiens, UniProt Q14164): 74%
BMPR1B (Homo sapiens, UniProt O00238): 81%
RIOK2 (Homo sapiens, UniProt Q9BVS4): 68%
PKMYT1 (Homo sapiens, UniProt Q99640): 96%
CSK (Homo sapiens, UniProt P41240): 100%
EGFR (Homo sapiens, UniProt P00533, A750P/del747-749): 73%
TTK (Homo sapiens, UniProt P33981): 74%

For quick reference, copied from above (block 3):
O=C1NC(=O)C(c2cn(CCCn3ccnc3)c3ccccc23)=C1Nc1ccccc1: 87%
Cn1sc(=O)n(Cc2ccccc2)c1=O: 96.4%
OCC(O)CCON=C1C(c2c(O)[nH]c3ccccc23)=Nc2ccccc21 (centres unmarked): 45.7%
COc1cc2ncnc(Nc3ccc(F)c(Cl)c3)c2cc1OCCCN1CCOCC1: 89.8%
Cc1nc(-c2ccccc2)c(-c2ccncc2)o1: 102%
COc1cc2ncnc(Nc3ccc(Oc4ccccc4)cc3)c2cc1OC: 101%
